Assay results from different studies.
Each numbered part is a random draw from the data of one study; scales do not carry over between parts.

Set 1 — technique: universal PBM; form: double-stranded DNA, one strand shown; matrix: in vitro; tested at: 600 nM; reading: higher = stronger binding
Target: Sal-like protein 4, full length isoform A (SALL4, Homo sapiens, UniProt Q9UJQ4, residues 1-1053)
UniProt Q9UJQ4, sequence (whole entry, looked up): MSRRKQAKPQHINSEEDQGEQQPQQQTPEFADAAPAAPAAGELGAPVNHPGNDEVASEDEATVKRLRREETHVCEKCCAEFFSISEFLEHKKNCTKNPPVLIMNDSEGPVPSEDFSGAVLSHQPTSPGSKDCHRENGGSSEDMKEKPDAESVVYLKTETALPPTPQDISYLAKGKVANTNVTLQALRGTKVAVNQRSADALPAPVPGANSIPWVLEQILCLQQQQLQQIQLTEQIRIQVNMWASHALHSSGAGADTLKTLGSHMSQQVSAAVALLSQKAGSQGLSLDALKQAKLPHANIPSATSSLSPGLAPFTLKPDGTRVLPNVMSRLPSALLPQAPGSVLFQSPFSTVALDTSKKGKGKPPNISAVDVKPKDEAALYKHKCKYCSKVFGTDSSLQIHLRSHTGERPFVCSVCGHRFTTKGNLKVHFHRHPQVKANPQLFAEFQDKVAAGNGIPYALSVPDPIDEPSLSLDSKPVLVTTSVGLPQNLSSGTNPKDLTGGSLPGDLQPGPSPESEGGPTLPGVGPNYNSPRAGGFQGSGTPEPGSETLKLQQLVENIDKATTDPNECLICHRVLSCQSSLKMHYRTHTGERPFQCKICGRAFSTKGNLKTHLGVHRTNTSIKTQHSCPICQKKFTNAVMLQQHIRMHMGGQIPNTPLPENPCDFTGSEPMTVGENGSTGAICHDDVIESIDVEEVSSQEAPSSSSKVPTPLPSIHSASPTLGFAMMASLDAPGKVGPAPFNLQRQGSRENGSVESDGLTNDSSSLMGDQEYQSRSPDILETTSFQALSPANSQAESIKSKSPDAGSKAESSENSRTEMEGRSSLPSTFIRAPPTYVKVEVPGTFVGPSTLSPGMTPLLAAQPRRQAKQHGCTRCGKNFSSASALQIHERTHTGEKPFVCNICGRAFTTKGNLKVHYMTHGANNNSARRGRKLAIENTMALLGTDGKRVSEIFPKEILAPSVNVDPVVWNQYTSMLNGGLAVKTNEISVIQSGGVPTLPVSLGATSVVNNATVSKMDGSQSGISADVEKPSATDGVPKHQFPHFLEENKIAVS
Setting: 8-mer, flanks averaged, mean of replicates
Sequence | E-score
AATTTGAG | 0.225
ATCCAAGA | 0.142
CCCGAAGA | -0.175
TCTAAGCA | 0.0985
GAGAACGA | 0.00422
ACAGGGGA | -0.177

Set 2 — technique: protein binding microarray; form: double-stranded DNA, one strand shown; matrix: in vitro; tested at: not given; reference: not given; reading: higher = stronger binding
Target: Histone acetyltransferase KAT6A, both winged helices, GST fusion (KAT6A, Homo sapiens, UniProt Q92794, residues 1-181)
Setting: 8-mer, flanks averaged, mean of 2 arrays, mostly near background
Target sequence (chain): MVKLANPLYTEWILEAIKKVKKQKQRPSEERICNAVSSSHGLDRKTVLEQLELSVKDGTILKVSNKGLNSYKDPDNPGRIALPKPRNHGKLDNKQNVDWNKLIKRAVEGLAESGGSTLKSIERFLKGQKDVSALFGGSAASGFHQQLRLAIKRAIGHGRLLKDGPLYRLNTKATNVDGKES
Sequence | E-score
CAAATACA | -0.139
GTCTAGAA | 0.06
CTTGGAGC | -0.207
GAACGGTC | 0.115
GATTGGCA | -0.222
ATTGACAA | -0.0842
AGAGATCG | 0.00395

Mixed results
FOXP2 N-truncated, polyQ removed: Forkhead box protein P2, N-truncated, polyQ removed (FOXP2, Homo sapiens, UniProt O15409, residues 214-715)
UniProt O15409, sequence (214-715, unmodified, looked up): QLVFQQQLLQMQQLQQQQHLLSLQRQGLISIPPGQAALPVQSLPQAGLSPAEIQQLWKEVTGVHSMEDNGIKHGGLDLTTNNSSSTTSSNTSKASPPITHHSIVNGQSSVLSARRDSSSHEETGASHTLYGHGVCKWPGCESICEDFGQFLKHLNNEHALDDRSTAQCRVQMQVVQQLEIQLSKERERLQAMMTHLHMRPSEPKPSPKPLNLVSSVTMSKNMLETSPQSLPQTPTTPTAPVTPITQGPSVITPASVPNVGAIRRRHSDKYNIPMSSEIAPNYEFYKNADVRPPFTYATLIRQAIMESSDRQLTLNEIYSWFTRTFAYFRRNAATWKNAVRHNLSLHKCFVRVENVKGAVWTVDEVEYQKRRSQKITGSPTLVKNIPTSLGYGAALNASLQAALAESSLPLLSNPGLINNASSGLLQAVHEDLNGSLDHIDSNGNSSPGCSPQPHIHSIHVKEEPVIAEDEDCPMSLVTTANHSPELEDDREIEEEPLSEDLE
Substance | target | test | system | setting | scale | measurement | value
CGCCTGTTACGGCATCAGGGCTTTGGTTTGGGATGGCTGCTTGTTTAGCAATTGTTCCGGCGGTATGAC | FOXP2 N-truncated, polyQ removed | MITOMI | double-stranded DNA, one strand shown, in vitro | not given, 69-bp whole dsDNA, apparent Ka, titration fit | reference: unmutated reference site, higher = stronger binding | relative association constant | 0.0664 fold
PhoQ, residues 284 288 289 292 302 303 SIHMAM | PhoP, residues 12 14 15 18 19 NMSSL (Escherichia coli, UniProt P23836) | Sort-seq, measured: YFP reporter | E. coli | PhoQ-PhoP variant library, added: 10 µM Mg2+ | reference: high Mg2+ state, higher = stronger signaling | fold induction | 2.86
CGCCTGTTACGGCATCAGGGCTTTGGTTTGGGATGGCTGCTTGTTTATCAATTGTTCCGGCGGTATGAC | FOXP2 N-truncated, polyQ removed | MITOMI | double-stranded DNA, one strand shown, in vitro | not given, 69-bp whole dsDNA, apparent Ka, titration fit | reference: unmutated reference site, higher = stronger binding | relative association constant | 0.446 fold
